Experimental data from different studies.
Compare with care: the assays were run in different laboratories. ± gives the spread as reported.
GRPR: Gastrin-releasing peptide receptor (GRPR, Homo sapiens, UniProt P30550)
Chain of UniProt P30550 (whole entry, looked up): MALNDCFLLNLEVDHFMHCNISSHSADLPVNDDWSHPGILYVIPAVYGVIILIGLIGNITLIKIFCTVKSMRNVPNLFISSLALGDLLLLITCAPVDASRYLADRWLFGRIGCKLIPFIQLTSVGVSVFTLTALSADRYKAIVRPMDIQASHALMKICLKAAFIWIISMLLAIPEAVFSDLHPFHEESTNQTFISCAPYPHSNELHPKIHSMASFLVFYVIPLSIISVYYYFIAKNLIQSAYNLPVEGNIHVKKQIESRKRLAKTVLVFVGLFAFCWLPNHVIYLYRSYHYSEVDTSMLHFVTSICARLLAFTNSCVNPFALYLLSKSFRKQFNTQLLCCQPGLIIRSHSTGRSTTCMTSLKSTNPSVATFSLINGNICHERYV
Sctr: Sctr (Rattus norvegicus, UniProt P23811)
Chain of UniProt P23811 (whole entry, looked up): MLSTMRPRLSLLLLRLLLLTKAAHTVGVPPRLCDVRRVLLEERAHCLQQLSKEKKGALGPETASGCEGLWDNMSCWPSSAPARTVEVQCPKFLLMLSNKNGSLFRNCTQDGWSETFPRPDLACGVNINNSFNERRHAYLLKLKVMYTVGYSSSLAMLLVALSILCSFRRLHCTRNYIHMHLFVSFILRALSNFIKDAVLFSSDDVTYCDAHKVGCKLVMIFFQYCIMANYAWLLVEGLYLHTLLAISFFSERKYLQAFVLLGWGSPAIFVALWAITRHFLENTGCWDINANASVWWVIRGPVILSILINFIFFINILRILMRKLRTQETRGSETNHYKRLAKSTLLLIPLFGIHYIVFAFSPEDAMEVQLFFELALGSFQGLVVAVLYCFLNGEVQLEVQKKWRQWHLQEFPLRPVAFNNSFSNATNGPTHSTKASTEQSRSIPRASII
FFAR2: Free fatty acid receptor 2 (FFAR2, Homo sapiens, UniProt O15552)
Chain of UniProt O15552 (whole entry, looked up): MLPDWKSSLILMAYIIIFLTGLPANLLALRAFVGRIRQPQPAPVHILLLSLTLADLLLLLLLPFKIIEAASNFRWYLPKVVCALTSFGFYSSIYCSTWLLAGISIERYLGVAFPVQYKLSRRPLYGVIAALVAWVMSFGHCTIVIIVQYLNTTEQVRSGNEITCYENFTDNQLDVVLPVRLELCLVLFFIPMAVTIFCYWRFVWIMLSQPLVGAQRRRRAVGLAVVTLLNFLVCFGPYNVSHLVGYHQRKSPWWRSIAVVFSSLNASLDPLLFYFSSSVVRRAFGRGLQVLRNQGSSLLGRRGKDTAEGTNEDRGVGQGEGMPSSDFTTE
Chain of UniProt P30518 (whole entry, looked up): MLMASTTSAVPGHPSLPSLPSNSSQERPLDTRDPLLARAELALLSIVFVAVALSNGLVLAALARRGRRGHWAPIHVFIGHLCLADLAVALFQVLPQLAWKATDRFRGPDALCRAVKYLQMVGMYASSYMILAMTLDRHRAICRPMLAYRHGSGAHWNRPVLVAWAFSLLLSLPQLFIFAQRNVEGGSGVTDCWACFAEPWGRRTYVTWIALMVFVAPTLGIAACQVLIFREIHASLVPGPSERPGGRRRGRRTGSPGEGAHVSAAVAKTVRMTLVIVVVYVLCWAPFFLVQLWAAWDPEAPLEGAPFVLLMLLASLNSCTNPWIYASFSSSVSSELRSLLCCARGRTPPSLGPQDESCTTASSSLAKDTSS
Chain of UniProt P18507 (whole entry, looked up): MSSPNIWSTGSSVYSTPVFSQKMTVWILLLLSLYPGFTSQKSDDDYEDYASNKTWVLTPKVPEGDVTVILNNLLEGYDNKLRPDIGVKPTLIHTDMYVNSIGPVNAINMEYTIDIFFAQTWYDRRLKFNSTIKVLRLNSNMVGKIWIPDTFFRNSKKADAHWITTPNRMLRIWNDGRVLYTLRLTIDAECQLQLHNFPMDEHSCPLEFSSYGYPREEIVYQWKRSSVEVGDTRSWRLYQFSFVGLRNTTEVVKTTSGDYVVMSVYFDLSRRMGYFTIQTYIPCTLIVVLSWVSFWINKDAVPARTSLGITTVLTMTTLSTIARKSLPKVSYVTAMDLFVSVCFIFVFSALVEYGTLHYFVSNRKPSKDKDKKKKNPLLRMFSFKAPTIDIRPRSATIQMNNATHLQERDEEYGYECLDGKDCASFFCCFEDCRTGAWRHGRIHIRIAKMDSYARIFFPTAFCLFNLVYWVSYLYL
Chain of UniProt Q03111 (whole entry, looked up): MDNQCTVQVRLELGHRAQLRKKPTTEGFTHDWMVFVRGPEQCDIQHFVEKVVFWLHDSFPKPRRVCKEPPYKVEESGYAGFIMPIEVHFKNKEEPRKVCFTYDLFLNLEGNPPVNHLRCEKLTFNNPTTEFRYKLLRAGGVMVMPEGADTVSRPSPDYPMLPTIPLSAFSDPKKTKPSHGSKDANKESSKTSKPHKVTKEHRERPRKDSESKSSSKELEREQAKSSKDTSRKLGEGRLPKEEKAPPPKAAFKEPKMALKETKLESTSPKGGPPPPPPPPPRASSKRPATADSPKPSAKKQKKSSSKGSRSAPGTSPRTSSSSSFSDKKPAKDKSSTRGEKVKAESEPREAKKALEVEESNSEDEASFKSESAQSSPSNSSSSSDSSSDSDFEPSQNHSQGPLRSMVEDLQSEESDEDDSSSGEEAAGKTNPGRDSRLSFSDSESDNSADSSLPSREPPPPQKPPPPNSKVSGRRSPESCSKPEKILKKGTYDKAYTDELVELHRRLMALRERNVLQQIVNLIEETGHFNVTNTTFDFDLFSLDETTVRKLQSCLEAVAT
Chain of UniProt P34972 (whole entry, looked up): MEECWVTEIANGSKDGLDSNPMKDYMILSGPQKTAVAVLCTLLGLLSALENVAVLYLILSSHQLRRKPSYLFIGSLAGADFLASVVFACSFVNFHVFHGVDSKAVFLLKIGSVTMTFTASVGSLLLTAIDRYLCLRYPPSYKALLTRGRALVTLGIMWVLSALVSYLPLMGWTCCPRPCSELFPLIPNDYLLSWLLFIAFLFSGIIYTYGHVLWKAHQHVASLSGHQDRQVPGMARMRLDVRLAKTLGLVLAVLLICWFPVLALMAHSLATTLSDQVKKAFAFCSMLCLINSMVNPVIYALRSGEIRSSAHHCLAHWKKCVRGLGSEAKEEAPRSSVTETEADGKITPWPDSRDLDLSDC
Chain of UniProt P47869 (whole entry, looked up): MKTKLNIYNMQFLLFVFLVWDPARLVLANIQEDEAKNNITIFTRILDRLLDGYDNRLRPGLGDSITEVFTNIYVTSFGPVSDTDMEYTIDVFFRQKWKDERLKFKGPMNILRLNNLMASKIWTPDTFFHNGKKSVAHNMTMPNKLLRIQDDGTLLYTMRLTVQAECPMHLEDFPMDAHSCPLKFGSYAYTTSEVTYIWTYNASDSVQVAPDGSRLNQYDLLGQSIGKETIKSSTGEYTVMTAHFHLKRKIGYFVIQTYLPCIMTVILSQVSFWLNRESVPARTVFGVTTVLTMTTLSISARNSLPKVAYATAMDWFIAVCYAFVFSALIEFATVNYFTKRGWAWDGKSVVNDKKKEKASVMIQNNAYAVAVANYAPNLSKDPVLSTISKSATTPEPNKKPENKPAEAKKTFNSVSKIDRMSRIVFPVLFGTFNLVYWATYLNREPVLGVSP
Chain of UniProt O95838 (whole entry, looked up): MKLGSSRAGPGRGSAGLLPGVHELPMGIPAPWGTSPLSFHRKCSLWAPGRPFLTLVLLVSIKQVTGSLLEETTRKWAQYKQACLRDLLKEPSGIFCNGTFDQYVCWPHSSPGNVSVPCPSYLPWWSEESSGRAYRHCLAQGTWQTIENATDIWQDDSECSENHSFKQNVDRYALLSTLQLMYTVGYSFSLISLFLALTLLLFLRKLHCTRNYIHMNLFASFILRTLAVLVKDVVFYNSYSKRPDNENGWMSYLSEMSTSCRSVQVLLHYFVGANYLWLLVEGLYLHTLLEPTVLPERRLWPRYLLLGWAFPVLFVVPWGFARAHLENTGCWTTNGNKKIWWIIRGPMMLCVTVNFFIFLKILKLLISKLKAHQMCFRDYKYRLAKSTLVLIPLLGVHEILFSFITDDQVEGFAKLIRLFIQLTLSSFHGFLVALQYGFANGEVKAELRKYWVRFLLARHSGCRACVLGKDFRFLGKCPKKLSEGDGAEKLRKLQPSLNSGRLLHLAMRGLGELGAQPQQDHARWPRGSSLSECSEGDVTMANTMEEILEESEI
Chain of UniProt Q6DWJ6 (whole entry, looked up): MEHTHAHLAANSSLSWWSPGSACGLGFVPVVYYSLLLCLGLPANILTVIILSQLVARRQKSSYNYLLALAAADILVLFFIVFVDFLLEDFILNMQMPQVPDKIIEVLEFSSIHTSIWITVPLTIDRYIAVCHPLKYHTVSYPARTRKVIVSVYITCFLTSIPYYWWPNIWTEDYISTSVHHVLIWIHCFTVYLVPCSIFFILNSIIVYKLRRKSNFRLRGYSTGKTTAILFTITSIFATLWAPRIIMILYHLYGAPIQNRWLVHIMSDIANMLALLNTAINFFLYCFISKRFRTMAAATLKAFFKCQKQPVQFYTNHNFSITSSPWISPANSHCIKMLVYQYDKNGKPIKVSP
Chain of UniProt Q60755 (whole entry, looked up): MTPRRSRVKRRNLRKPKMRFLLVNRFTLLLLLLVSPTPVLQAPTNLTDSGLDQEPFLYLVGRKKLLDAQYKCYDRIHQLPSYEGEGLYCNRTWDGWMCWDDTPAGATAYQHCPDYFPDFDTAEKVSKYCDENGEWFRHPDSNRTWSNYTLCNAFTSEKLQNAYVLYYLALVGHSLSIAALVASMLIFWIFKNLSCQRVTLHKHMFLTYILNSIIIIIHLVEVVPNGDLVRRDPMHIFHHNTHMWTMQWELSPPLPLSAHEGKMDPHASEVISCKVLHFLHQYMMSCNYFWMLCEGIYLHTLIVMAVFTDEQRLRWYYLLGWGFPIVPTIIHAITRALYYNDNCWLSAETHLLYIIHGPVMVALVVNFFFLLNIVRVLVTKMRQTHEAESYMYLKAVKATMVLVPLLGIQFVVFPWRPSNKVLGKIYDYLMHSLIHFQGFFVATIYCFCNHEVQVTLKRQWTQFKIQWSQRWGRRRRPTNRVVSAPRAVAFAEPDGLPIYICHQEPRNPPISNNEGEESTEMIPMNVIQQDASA

Structure (SMILES)	target	test	system	conditions	scale	EC50
CC[C@H](C)[C@H](NC(=O)[C@H](CCC(N)=O)NC(=O)[C@H](Cc1c[nH]cn1)NC(=O)[C@H](C)NC(=O)[C@H](CC(C)C)NC(=O)[C@H](CCCCN)NC(=O)[C@H](CCC(N)=O)NC(=O)[C@@H](NC(=O)[C@@H](NC(=O)[C@@H]1CSSC[C@H](NC(=O)CNC(=O)[C@H](Cc2ccccc2)NC(=O)[C@H](CO)NC(=O)[C@H](CCCNC(=N)N)NC(=O)[C@H](CC(C)C)NC(=O)CNC(=O)[C@H](CCC(N)=O)NC(=O)[C@H](Cc2ccccc2)NC(=O)[C@H](CC(N)=O)NC(=O)[C@H](CC(N)=O)NC(=O)[C@H](CCSC)NC(=O)[C@H](CO)NC(=O)[C@H](CCC(N)=O)NC(=O)[C@H](CCCNC(=N)N)NC(=O)[C@@H](N)Cc2ccc(O)cc2)C(=O)N[C@@H](CCCNC(=N)N)C(=O)N[C@@H](Cc2ccccc2)C(=O)NCC(=O)N[C@@H]([C@@H](C)O)C(=O)N1)[C@@H](C)O)C(C)C)C(=O)N[C@@H](Cc1ccc(O)cc1)C(=O)N[C@@H](CCC(N)=O)C(=O)N[C@@H](Cc1ccccc1)C(=O)N[C@H](C(=O)N[C@@H](CC(=O)O)C(=O)N[C@@H](CCCCN)C(=O)N[C@@H](CC(=O)O)C(=O)N[C@@H](CCCCN)C(=O)N[C@@H](CC(=O)O)C(=O)N[C@@H](CC(N)=O)C(=O)N[C@H](C(=O)N[C@@H](C)C(=O)N1CCC[C@H]1C(=O)N[C@@H](CCCNC(=N)N)C(=O)N[C@@H](CO)C(=O)N[C@@H](CCCCN)C(=O)N[C@H](C(=O)N[C@@H](CO)C(=O)N1CCC[C@H]1C(=O)N[C@@H](CCC(N)=O)C(=O)NCC(=O)N[C@@H](Cc1ccc(O)cc1)C(N)=O)[C@@H](C)CC)C(C)C)[C@@H](C)O	Calcitonin receptor (Calcr, Mus musculus, UniProt Q60755)	cAMP production, agonist	COS-7 transfected with mouse CTR	15 min, 37 °C, with: 1 mM IBMX		0.191 µM
CCOC(=O)[C@](CC)(CCCSCCOCCOCCNC(=O)c1ccc(C(=O)[O-])c(C2=C3C=CC(=[N+](C)C)C=C3[Si](C)(C)c3cc(N(C)C)ccc32)c1)NC(=O)c1ccc(C2CC2)c(Cc2ccc(F)cc2)n1	CNR2 (Homo sapiens, UniProt P34972)	cAMP, agonist				0.067 µM
CC(C)C[C@H](NC(=O)[C@H](CC(C)C)NC(=O)[C@H](Cc1c[nH]cn1)NC(=O)[C@@H](C)NC(=O)[C@@H](NC(=O)[C@H](C)NC(=O)[C@H](Cc1c[nH]c2ccccc12)NC(=O)[C@H](CCC(N)=O)NC(=O)[C@H](N)Cc1ccccc1)C(C)C)C(N)=O	GRPR	inositol phosphate generation, agonist	BALB/3T3 transfected with human GRPR	45 min, 37 °C	baseline: 1 µM GRP	0.00302 ± 0.0001 µM
COc1ccc(-c2cc(C(F)(F)F)nc(S(=O)(=O)CCCC(=O)Nc3ccccc3F)n2)cc1OC	AVPR2 (Homo sapiens, UniProt P30518)	cAMP accumulation, positive allosteric modulator	CHO-K1 overexpressing AVPR2	with: vasopressin at EC20		13 ± 13 µM
CC(C)C[C@H](NC(=O)CNC(=O)[C@H](C)NC(=O)[C@H](CC(C)C)NC(=O)[C@H](CC(C)C)NC(=O)[C@H](CCCNC(=N)N)NC(=O)[C@H](CCC(N)=O)NC(=O)[C@H](CC(C)C)NC(=O)[C@H](CCCNC(=N)N)NC(=O)[C@H](C)NC(=O)[C@H](CO)NC(=O)[C@H](CC(=O)O)NC(=O)[C@H](CCC(N)=O)NC(=O)[C@H](CC(C)C)NC(=O)[C@H](CCCNC(=N)N)NC(=O)[C@H](CO)NC(=O)[C@H](CC(C)C)NC(=O)[C@H](CCC(=O)O)NC(=O)[C@H](CO)NC(=O)[C@@H](NC(=O)[C@H](Cc1ccccc1)NC(=O)[C@@H](NC(=O)CNC(=O)[C@H](CC(=O)O)NC(=O)[C@H](CO)NC(=O)[C@@H](N)Cc1c[nH]cn1)[C@@H](C)O)[C@@H](C)O)C(=O)N[C@H](C(N)=O)C(C)C	Sctr	cAMP production, agonist	CHO-SecR	30 min, 37 °C, with: 1 mM IBMX		0.0002 ± 5e-05 µM
CC[C@H](C)[C@H](NC(=O)[C@H](Cc1ccccc1)NC(=O)[C@H](CC(=O)O)NC(=O)[C@H](CCCNC(=N)N)NC(=O)[C@H](C)NC(=O)[C@H](C)NC(=O)[C@H](CC(C)C)NC(=O)[C@H](CC(N)=O)NC(=O)[C@H](CC(=O)O)NC(=O)[C@H](CC(C)C)NC(=O)[C@@H](NC(=O)[C@@H](NC(=O)[C@H](CC(N)=O)NC(=O)[C@H](CCSC)NC(=O)[C@H](CCC(=O)O)NC(=O)[C@H](CC(=O)O)NC(=O)[C@H](CO)NC(=O)[C@H](Cc1ccccc1)NC(=O)[C@H](CO)NC(=O)CCNC(=O)[C@H](CC(=O)O)NC(=O)[C@H](C)NC(=O)[C@@H](N)Cc1c[nH]cn1)[C@@H](C)O)[C@@H](C)CC)C(=O)N[C@@H](CC(N)=O)C(=O)N[C@@H](Cc1c[nH]c2ccccc12)C(=O)N[C@@H](CC(C)C)C(=O)N[C@H](C(=O)N[C@@H](CCC(N)=O)C(=O)N[C@H](C(=O)N[C@@H](CCCCN)C(=O)N[C@H](C(=O)N[C@H](C(=O)N[C@@H](CC(=O)O)C(N)=O)[C@@H](C)O)[C@@H](C)CC)[C@@H](C)O)[C@@H](C)CC	GLP2R (Homo sapiens, UniProt O95838)	agonist				0.0005 µM
CCCC[C@H](NC(=O)[C@H](Cc1ccccc1)NC(=O)[C@H](Cc1c[nH]cn1)NC(=O)CCNC(=O)[C@@H](NC(=O)[C@H](C)NC(=O)[C@H](Cc1c[nH]c2ccccc12)NC(=O)[C@H](CCC(N)=O)NC(=O)[C@H](N)Cc1ccccc1)C(C)C)C(N)=O	GRPR	inositol phosphate formation, agonist	HuTu80	45 min, 37 °C	baseline: 1 µM GRP	0.00036 ± 1e-05 µM
CC(C)CN(CC(C)C)C(=O)/C=C/C=C/c1ccc2c(c1)OCO2	Gabra2/Gabrb2 (Rattus norvegicus, UniProt P23576+P63138)	GABA current potentiation, positive modulator, two-electrode voltage clamp	Xenopus oocytes expressing α2β2	with: GABA EC3-7		13.1 ± 9 µM
CC1(C(=O)O)CC1	FFAR2	agonist				2400 µM
CC(C)C[C@H](NC(=O)[C@H](C)NC(=O)[C@H](CCC(N)=O)NC(=O)[C@H](CC(C)C)NC(=O)[C@H](CC(C)C)NC(=O)[C@H](CCCNC(=N)N)NC(=O)[C@H](CCC(N)=O)NC(=O)[C@H](CC(C)C)NC(=O)[C@H](CCCNC(=N)N)NC(=O)[C@H](C)NC(=O)[C@H](CO)NC(=O)[C@H](CC(=O)O)NC(=O)[C@H](CCC(N)=O)NC(=O)[C@H](CC(C)C)NC(=O)[C@H](CCCNC(=N)N)NC(=O)[C@H](CO)NC(=O)[C@H](CC(C)C)NC(=O)[C@H](CCC(=O)O)NC(=O)[C@H](CO)NC(=O)[C@@H](NC(=O)[C@H](Cc1ccccc1)NC(=O)[C@@H](NC(=O)CNC(=O)[C@H](CC(=O)O)NC(=O)[C@H](CO)NC(=O)[C@@H](N)Cc1c[nH]cn1)[C@@H](C)O)[C@@H](C)O)C(=O)N[C@H](C(N)=O)C(C)C	Sctr	cAMP production, agonist	CHO-SecR	30 min, 37 °C, with: 1 mM IBMX		0.0002 ± 6e-05 µM
CSCC[C@H](NC(=O)[C@H](CO)NC(=O)[C@H](Cc1ccc(O)cc1)NC(=O)[C@@H](N)CO)C(=O)N[C@@H](CCC(=O)O)C(=O)N[C@@H](Cc1c[nH]cn1)C(=O)N[C@@H](Cc1ccccc1)C(=O)N[C@@H](CCCNC(=N)N)C(=O)N[C@@H](Cc1c[nH]c2ccccc12)C(=O)O	GPR139 (Homo sapiens, UniProt Q6DWJ6)	calcium signal, agonist, fluorescence				0.596 µM
CSCC(=O)O	FFAR2	agonist				2950 µM
CC(C)C[C@H](NC(=O)CNC(=O)[C@H](CCC(N)=O)NC(=O)[C@H](CC(C)C)NC(=O)[C@H](CC(C)C)NC(=O)[C@H](CCCNC(=N)N)NC(=O)[C@H](CCC(N)=O)NC(=O)[C@H](CC(C)C)NC(=O)[C@H](C)NC(=O)[C@H](C)NC(=O)[C@H](CO)NC(=O)[C@H](CC(=O)O)NC(=O)[C@H](CCC(N)=O)NC(=O)[C@H](CC(C)C)NC(=O)[C@H](CCCNC(=N)N)NC(=O)[C@H](CO)NC(=O)[C@H](CC(C)C)NC(=O)[C@H](CCC(=O)O)NC(=O)[C@H](CO)NC(=O)[C@@H](NC(=O)[C@H](Cc1ccccc1)NC(=O)[C@@H](NC(=O)CNC(=O)[C@H](CC(=O)O)NC(=O)[C@H](CO)NC(=O)[C@@H](N)Cc1c[nH]cn1)[C@@H](C)O)[C@@H](C)O)C(=O)N[C@H](C(N)=O)C(C)C	Sctr	cAMP production, agonist	CHO-SecR	30 min, 37 °C, with: 1 mM IBMX		0.0004 ± 0.0001 µM
CC[C@H](C)[C@H](NC(=O)CNC(=O)[C@H](CC(=O)O)NC(=O)[C@H](CO)NC(=O)Cc1cccnc1)C(=O)N[C@@H](Cc1ccccc1)C(=O)N[C@H](C(=O)N[C@@H](CC(=O)O)C(=O)N[C@@H](CO)C(=O)N[C@@H](Cc1ccc(O)cc1)C(=O)N[C@@H](CO)C(=O)N[C@@H](CCCNC(=N)N)C(=O)N[C@@H](Cc1ccc(O)cc1)C(=O)N[C@@H](CCCNC(=N)N)C(=O)N[C@@H](CCCCN)C(=O)N[C@@H](CCC(N)=O)C(=O)N[C@@H](CCSC)C(=O)N[C@@H](C)C(=O)N[C@H](C(=O)N[C@@H](CCCCN)C(=O)N[C@@H](CCCCN)C(=O)N[C@@H](C)C(=O)N[C@@H](CC(C)C)C(=O)N[C@@H](C)C(=O)N[C@@H](C)C(=O)N[C@H](C(=O)N[C@@H](CC(C)C)C(=O)NCC(=O)N[C@@H](CCCCN)C(=O)N[C@@H](CCCNC(=N)N)C(=O)N[C@@H](Cc1ccc(O)cc1)C(=O)N[C@@H](CCCCN)C(=O)N[C@@H](CCC(N)=O)C(=O)N[C@@H](CCCNC(=N)N)C(=O)N[C@H](C(=O)N[C@@H](CCCCN)C(=O)N[C@@H](CC(N)=O)C(=O)N[C@@H](CCCCN)C(N)=O)C(C)C)C(C)C)C(C)C)[C@@H](C)O	VIPR1 (Homo sapiens, UniProt P32241)	cAMP, agonist, radiometric				0.199 µM
O=C(NC1CCC1)c1ccc2nc(-c3ccccc3)cn2c1	Protein ENL, YEATS domain (MLLT1, Homo sapiens, UniProt Q03111)			cell-based		3 µM
CC(C)C[C@H](NC(=O)CNC(=O)[C@H](CCC(N)=O)NC(=O)[C@H](CC(C)C)NC(=O)[C@H](C)NC(=O)[C@H](CCCNC(=N)N)NC(=O)[C@H](CCC(N)=O)NC(=O)[C@H](CC(C)C)NC(=O)[C@H](CCCNC(=N)N)NC(=O)[C@H](C)NC(=O)[C@H](CO)NC(=O)[C@H](CC(=O)O)NC(=O)[C@H](CCC(N)=O)NC(=O)[C@H](CC(C)C)NC(=O)[C@H](CCCNC(=N)N)NC(=O)[C@H](CO)NC(=O)[C@H](CC(C)C)NC(=O)[C@H](CCC(=O)O)NC(=O)[C@H](CO)NC(=O)[C@@H](NC(=O)[C@H](Cc1ccccc1)NC(=O)[C@@H](NC(=O)CNC(=O)[C@H](CC(=O)O)NC(=O)[C@H](CO)NC(=O)[C@@H](N)Cc1c[nH]cn1)[C@@H](C)O)[C@@H](C)O)C(=O)N[C@H](C(N)=O)C(C)C	Sctr	cAMP production, agonist	CHO-SecR	30 min, 37 °C, with: 1 mM IBMX		0.0117 ± 0.0021 µM
CC(C)[C@H](C(=O)Nc1ncc(F)s1)c1ccc(Cl)cc1	FFAR2	cAMP, agonist, luciferase				0.089 µM
Cc1cc(N/C=C(\C(=O)NC2CCC2)C(=O)c2ccc(Cl)cc2Cl)no1	Gamma-aminobutyric acid receptor subunit alpha-2/beta-1/gamma-2 (Homo sapiens, UniProt P18505+P18507+P47869)	GABA current potentiation, positive modulator, two-electrode voltage clamp	Xenopus laevis oocytes	30 s preincubation, with: GABA EC10		0.41 ± 0.07 µM
CCC(CC)N[C@H](Cc1ccccc1)C(=O)N[C@@H](CCC(N)=O)C(=O)N[C@@H](Cc1c[nH]c2ccccc12)C(=O)N[C@@H](C)C(=O)N[C@H](C(=O)N[C@H](C)C(=O)N[C@@H](Cc1c[nH]cn1)C(=O)N[C@@H](CC(C)C)C(=O)N[C@@H](CC(C)C)C(N)=O)C(C)C	GRPR	inositol phosphate formation, agonist	BALB/3T3 transfected with human GRPR	45 min, 37 °C	baseline: 1 µM GRP	0.0275 ± 0.0013 µM
